Experimental data gathered from unrelated publications.
Lines come from different studies, so protocols differ. “And” joins repeats or separate records; there may be more than shown. ± marks the error that the study gave.

CNC(=O)c1ccc(-c2cnc3ncc(Cc4ccc5ncccc5c4)n3n2)cc1F: “upper abdominal pain incidence (all grades)” 0% (CTCAE v4.0, any causality; human hepatocellular carcinoma patients; oral, 600 mg twice daily, expansion cohort at RP2D).
O=C(Nc1nc2cccc(-c3ccc(CN4CCS(=O)(=O)CC4)cc3)n2n1)C1CC1: “treatment-emergent adverse events” 0% (refers to: arthropod sting allergy; rheumatoid arthritis patients; oral, 200 mg once daily, 4 weeks, any relatedness).
COc1cc(N)c(Cl)cc1C(=O)NC1CCN(CCCOc2ccc(F)cc2)CC1OC (centres unmarked) — result for “mean blood pressure”: 34 ± 0.1 mmHg (male Hartley guinea pigs, anaesthetized; intravenous, 0.3 mg/kg group, baseline before infusion).
Nc1ccn([C@H]2CC[C@@H](CO)O2)c(=O)n1 gave a selectivity index of greater than 267 (HIV-1; MT4, IIIB wild type; baseline: CC50 over EC50).
With C[C@@H]1COCCN1c1cc(C2([S@](C)(=N)=O)CC2)nc(-c2cc[nH]c3nccc2-3)n1 the Anemia incidence was 0% (Japanese advanced solid tumour patients; oral, 240 mg twice daily, CTCAE grade ≥3).
Under “bile ducts per triad”, Cc1cccc(Cn2cc(CO)c3cnccc32)c1 is recorded as 3.8 and 4.5 and 1.5 (F344 rat, male, liver; oral, 100 mg/kg/day, 2 days).
COc1cc(C(=O)NC2CCN(C)CC2)c(F)cc1Nc1ncc(C(F)(F)F)c(Oc2cccc3c2C(=O)N(C)C3)n1 gave a dose-normalised Cmax of 15.1 nmol/L per mg (human patients, plasma; oral, 300 mg single dose, geometric mean).
With CCn1c(C(=O)N(C2CC2)C2CC2)cc2c3c(ncn3C)c(Nc3cc(C)n(C)n3)nc21 the plasma concentration was 7770 ng/mL (cancer patients; oral, 200 mg twice daily, day 15, 338.0 h).
For COc1ccc2c3c1O[C@H]1C[C@@H](OC(=O)c4ccccc4)C=C[C@@]31CCN(C)C2, “brain-to-blood AUClast ratio” read 19.6 (Swiss albino mouse; intravenous, 3.0 mg/kg; baseline: brain over blood).
Under “total testosterone level”, N#Cc1ccc2c(c1)[C@H]1CCCN(C(=O)c3ccc4[nH]cnc4c3)[C@H]1C2 is recorded as 13.7 nmol/L (human males; 360 mg, end of trial).
The AST of CNC(=O)c1cc(Oc2ccc(NC(=O)Nc3ccc(Cl)c(C(F)(F)F)c3)cc2)ccn1 is reported as 135 ± 90.8 U/L (NOD-SCID mouse, serum; ip, 30 mg/kg).
Under “mean blood pressure”, CC(=O)Oc1ccccc1C(=O)O is recorded as 32 ± 0.4 mmHg (male Hartley guinea pigs, anaesthetized; intravenous, 10 mg/kg over 10 min, after infusion).
Under “subjects with adverse event”, CN(C)C(=N)N=C(N)N is recorded as 9.1% (refers to: headache; healthy men; oral, dose not given, 8 days, treatment-emergent, crossover trial).
C[C@@H]1O[C@@H](O[C@H]2[C@H](Oc3cc(O)c4c(c3)O[C@H](c3ccc(O)cc3)CC4=O)O[C@H](CO)[C@@H](O)[C@@H]2O)[C@H](O)[C@H](O)[C@H]1O has a Papp of 0.207 ± 0.5 ×10⁻⁶ cm/s (PBS receiver; 50 mg/mL, 30 min, pH 6.8).
The AUC(0-tau) of O=C(Nc1cnccc1Cl)N1CCN(Cc2ccc3c(c2)OC(F)(F)O3)CC1 is reported as 2200 ng·h/mL (healthy young men, plasma; oral, 25 mg once daily, day 10, dosing interval 24 h).
The Vz/F of CCN1CCN(Cc2ccc(NC(=O)c3ccc(C)c(NC(=O)c4cncc(-c5cccs5)c4)c3)cc2C(F)(F)F)CC1 is reported as 24 L/kg (C57BL/6 mouse, plasma; intraperitoneal, 10 mg/kg, single dose).
For N=C(N)NC(=O)c1nc(Cl)c(NCc2cc(Cl)cc(Cl)c2)nc1N, the pKa was 8.69.
COc1ncc(-c2nc3c(n2C(C)C)[C@H](c2ccc(Cl)cc2)N(c2cc(Cl)cn(C)c2=O)C3=O)c(OC)n1 has a Cmax of 121 ng/mL (LC-MS/MS; human, plasma; oral, 12.5 mg, cycle 2 day 1, high-dose arm).
Cc1cc(Nc2cc3ncccc3c(N[C@@H]3C[C@H]4CC[C@@H](C3)N4CCC#N)n2)n[nH]1 has a pruritus incidence of 0% (healthy human subjects; oral, 10 mg, 2 weeks, single ascending dose).
Under “patients discontinuing for AE”, C[C@@H](Nc1cc(F)cc(F)c1)c1cc(C(=O)N(C)C)cc2c(=O)cc(N3CCOCC3)oc12 is recorded as 1.6% (CTCAE v4, refers to: confusional state; patients with advanced solid tumours; oral, dose not given, phase I dose finding).
For C=CC(=O)Nc1cc(Nc2nccc(-c3cn(C)c4ccccc34)n2)c(OC)cc1N(C)CCN(C)C, the recovery was 87.4% (storage stability; human dried blood spots; 24 h, -80 °C, medium QC level).
Under “half-life geometric mean”, CCOc1c([C@H](C)n2nc(C)c3c(N)ncnc32)cc(Cl)c(F)c1[C@@H]1CNC(=O)C1 is recorded as 8.6 ± 1.95 h (patients with indolent lymphoma, plasma; oral, 20 mg, day 15, monotherapy).
For C=CCn1c(=O)c2cnc(Nc3ccc(N4CCN(C)CC4)cc3)nc2n1-c1cccc(C(C)(C)O)n1, pharmacokinetics read “no effect” (human cancer patients, plasma; with: durvalumab co-administration; baseline: monotherapy lead-in).
CC1(C)S[C@@H]2[C@H](NC(=O)[C@H](N)c3ccc(O)cc3)C(=O)N2[C@H]1C(=O)O — result for “mean blood pressure”: 38 ± 0.2 mmHg (male Hartley guinea pigs, anaesthetized; intravenous, 20 mg/kg group, baseline before infusion).
For COc1nc(-c2cc(C)c(N[C@@H](C)c3cc(F)cc(F)c3)nn2)ccc1-n1cnc(C)c1, the t1/2 was 3.7 h (cynomolgus monkey, male, plasma; intravenous, 1 mg/kg).
With CCn1cc(C(=O)O)c(=O)c2ccc(C)nc21 the pKa (basic) was less than 2.
The remaining compound of CC(C)[N+](C)(CCOC(=O)C1c2ccccc2Oc2ccccc21)C(C)C is reported as 31.9% (human, both sexes, whole blood; 5 µM, 60 min).
For O=C1c2ccccc2C(=O)c2c(NCCc3ccc(O)cc3)ccc(NCCc3ccc(O)cc3)c21, the EC50 was 3.96 µM (Toxoplasma gondii; parasite growth; HFF, bradyzoite, glutamine-induced).
Under “participants with any serious TEAE”, CN1C(=O)[C@@H](NC(=O)c2nnc(Cc3ccccc3)[nH]2)COc2cccnc21 is recorded as 0% (phase I single ascending dose; human, male and female; oral, 400 mg, fasted).
For O=C(O)CNC(=O)c1ncccc1O, the pKa (basic) was less than 2.
For Cc1cc(-c2nnc(N)nc2-c2ccc(F)cc2)cc(Cl)n1, “patients with immune-mediated AE” read 0% (refers to: Rash; IO-naive mCRPC patients, male; oral, dose not given, treatment-related, all grades).
Under “adverse event incidence”, Cc1ccc(Sc2ccccc2N2CCNCC2)c(C)c1 is recorded as 5.3% (any TEAE; healthy adult men; oral, 10 mg single dose, 8 nights, fasted).
For Cc1c(-c2ccc(N3CCc4cccc(C(=O)Nc5nc6ccccc6s5)c4C3)nc2C(=O)O)cnn1CC12CC3(C)CC(C)(C1)CC(OCCNCC[C@H](O)CO)(C3)C2, “mean arterial pressure change” read -28% (beagle dog, male, anaesthetised; intravenous infusion, 0.3 mg/kg/min, 75 min; baseline: vehicle).
CN[C@@H]1COc2c(S(=O)(=O)NC(=O)Nc3c4c(cc5c3CCC5)CCC4)cnn2C1 gave an ALT of 335 U/L (human, serum; oral, 900 mg twice daily, day 23, with: midazolam).
For Cn1cc(-c2ccc(-c3cncc(Cl)c3N3CCC4(CCNC4=O)CC3)cc2)cn1, “log2 fold change” read 1.38 (COLO 205; gene expression, microarray, refers to: DUSP6 mRNA; concentration not given, 6 h; baseline: untreated cells).
With COCCOc1cnc2ccn([C@H](C)c3nnc4c(F)cc(-c5cnn(C)c5)cn34)c(=O)c2c1 the Ctrough was 40 ng/mL (patients, plasma; oral, 50 mg once daily, day 1 24 h postdose).
With Cc1c(Br)cc(NC(=O)C(c2ccccc2)S(=O)(=O)O)cc1Br (centres unmarked) the unbound Cmax was less than 6 nM (CD-1 mice, whole blood; oral, 10 mg/kg).
For CC(=NNC(=O)COc1ccc2c(C)c(Cc3ccccc3)c(=O)oc2c1C)c1ccc(Br)cc1, the viability was 65.7% (HPrEC normal prostate epithelial cells; MTT; 6.3 µg/mL, 2% serum).
Under “upper abdominal pain incidence”, Cc1cc(-c2nccc3c2ccn3CC(=O)Nc2ccc(-c3cnccn3)cn2)ccn1 is recorded as 0% (healthy human volunteers; oral, 20 mg single dose, single ascending dose).
With CC(C)n1nc(-c2ccc3oc(N)nc3c2)c2c(N)ncnc21 the AUC(0-last) was 1560 ng·h/mL (human, plasma; oral, 20 mg once weekly, cycle 1 day 1).
Under “treatment-related adverse events”, FC(F)(F)c1ccc(CNc2ccc(Cc3c[nH]c4ncc(Cl)cc34)cn2)cn1 is recorded as 0% (refers to: Dysgeusia; patients with advanced solid tumours, non-TGCT cohort; oral, 1000 mg/day, grade 3 or higher).
CC(C)(C(=O)N1CCOc2c(C#N)cncc2C1)C(F)F — result for “subjects with adverse event”: 16.7% (refers to: Vomiting; human; oral, 10 mg, CSF pharmacokinetic cohort).
With C[C@H]1CN(c2n[nH]c3nc(N[C@H]4CC[C@H](NS(=O)(=O)CCC(F)(F)F)CC4)ncc23)CCO1 the calcium concentration was 0.94 fold (male Han Wistar rat; oral, 1000 mg/kg/day, 7 days; baseline: vehicle).
With Cc1c(C(=O)O)ccc2c3n(nc12)[C@@H]1[C@H](C3)N(CC2CC2)[C@@]2(C(=O)Nc3cc(Cl)ccc32)[C@H]1c1cccc(Cl)c1F the plasma concentration was 2450 nM and 2230 nM and 2050 nM and 1780 nM (female BALB/c nude mice, plasma; oral, 2 mg/kg once daily, 2 h, SJSA-1 tumour-bearing).
For Cc1ccc([C@@H]2O[C@H](CO)[C@@H](O)[C@H](O)[C@H]2O)cc1Cc1ccc(-c2ccc(F)cc2)s1, “urinary potassium excretion change” read 0.399 mEq (Japanese type 2 diabetes patients; 200 mg, day 5, 24 h urine collection; baseline: baseline).
With CCCCCN1C[C@H](O)[C@@H](O)[C@H](O)[C@@H]1CO the brain/plasma ratio was 0.09 (Hexb-/- mouse; 300 mg/kg/day).
With CC(C)/N=C(\N)c1ccc(NC(=O)c2ccc(C(=O)Nc3ccc(/C(N)=N/C(C)C)cc3)cc2)cc1 the maximum haemolysis was 1.99% (sheep erythrocytes; 1 h, pH 7.5).
The total Cmax of CCO[C@H]1CCN(Cc2c(OC)cc(C)c3[nH]ccc23)[C@H](c2ccc(C(=O)O)cc2)C1 is reported as 3400 ng/mL (human severe hepatic impairment, plasma; oral, 200 mg single dose, median).
With COc1cc(/C=C/C(=O)N2CCC=CC2=O)cc(OC)c1OC the EC90 was 6.89 µM (Toxoplasma gondii; parasite growth; HFF, bradyzoite, glutamine-induced).
Under “systolic blood pressure”, COc1ccc2c(c1)CN(C(=O)CCN1CCC(Cc3ccccc3)CC1)CC[S@@+]2[O-] is recorded as 136 ± 7 mmHg (telemetry; conscious male beagle dogs; intravenous, 2 mg/kg, 0.5 h).

A few entries again:
With Cc1c(C(=O)O)ccc2c3n(nc12)[C@@H]1[C@H](C3)N(CC2CC2)[C@@]2(C(=O)Nc3cc(Cl)ccc32)[C@H]1c1cccc(Cl)c1F the plasma concentration was 2450 nM and 2230 nM and 2050 nM and 1780 nM (female BALB/c nude mice, plasma; oral, 2 mg/kg once daily, 2 h, SJSA-1 tumour-bearing).
For Cc1ccc([C@@H]2O[C@H](CO)[C@@H](O)[C@H](O)[C@H]2O)cc1Cc1ccc(-c2ccc(F)cc2)s1, “urinary potassium excretion change” read 0.399 mEq (Japanese type 2 diabetes patients; 200 mg, day 5, 24 h urine collection; baseline: baseline).
With CCCCCN1C[C@H](O)[C@@H](O)[C@H](O)[C@@H]1CO the brain/plasma ratio was 0.09 (Hexb-/- mouse; 300 mg/kg/day).
